Experimental data collected from several papers.
Every numbered part comes from another study and shows a few of its results, in no order. Substitutions count along the parent as printed.

Block 1
Target: Centromere-binding protein 1, full length, N-terminal tag (CBF1, Saccharomyces cerevisiae, UniProt P17106, residues 1-351)
Chain of UniProt P17106 (whole entry, looked up): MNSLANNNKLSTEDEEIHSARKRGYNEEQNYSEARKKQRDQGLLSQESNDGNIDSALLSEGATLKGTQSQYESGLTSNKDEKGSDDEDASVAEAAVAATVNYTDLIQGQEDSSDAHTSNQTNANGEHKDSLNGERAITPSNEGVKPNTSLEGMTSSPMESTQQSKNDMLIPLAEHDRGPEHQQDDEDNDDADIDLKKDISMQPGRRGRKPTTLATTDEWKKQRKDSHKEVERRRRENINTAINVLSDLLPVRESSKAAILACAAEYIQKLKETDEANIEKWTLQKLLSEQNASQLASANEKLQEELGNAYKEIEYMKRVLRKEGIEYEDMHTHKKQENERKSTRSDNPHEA
Technique: protein-binding microarray
Molecule type: double-stranded DNA, one strand shown
Medium: in vitro
Tested at: 0.8 µM
Setting: whole 60-bp probe, no competitor
Direction: higher = stronger binding
Constant ends, left off below: … GTCTTGATTCGCTTGACGCTGCTG
Strand | fluorescence intensity
CTAATCGCTATATTCATGGTGACGGCTCATCTCTTC | 531 a.u.
GAAGAATATTCAAGCCATGTGCAGAAATAGACGTAG | 949 a.u.
GAATAACACCGGGTTCTGATGTTATCACCTACTTAG | 478 a.u.
TGTACGAAGCTATGTGACGTTCGTATAGTAGTTAGG | 513 a.u.
CTAAGAATGGATGGAAACGTGGCAAGTCATATCTTC | 586 a.u.
CTAAATTTGGAACAGTTCGTGACTGTTTATTAATTC | 725 a.u.
CTACTCATGCTTTGGCGCGTGCGCATCTATATATTC | 677 a.u.
CTATATATAACAAATCACGTATAAGCATGAGAATTC | 645 a.u.
CCTAACTACTATAGAAATGTGCAATAGCTTCGTACA | 542 a.u.
CTATTTCCAGCGGATGGTGACGCGAGGCATCCGTTC | 511 a.u.
GAAATTGGAAATGCGCAGGTGAGCTGATTGATTTAG | 593 a.u.
GAAGTTCCGCACTGTGACCACCGGAACGTACGTTAG | 529 a.u.
GAATTTCATATATTTCTGATGACTTTTTCATTTTAG | 531 a.u.
CTATTGTTTATCTTGCACATGGCAAGGCCATCGTTC | 814 a.u.
CTATATGAATCTGAGAGTGTGACCATATGGTGGTTC | 672 a.u.
CTACTTAATGGAACAAACGTGATCTGGGATAAATTC | 1700 a.u.
CTATTAAAATGACATCAGGTATCAATGCTAATCTTC | 561 a.u.
CCTAACTACTATAACCACGTCGTATAGCTTCGTACA | 533 a.u.
GAACTAATATAGACGCACGAGTTTCGTTCGCGCTAG | 643 a.u.
CTATTTCAGGGACATCATGTTGTAAAAGAAAAATTC | 593 a.u.
CTAATGCCCTGCTATCTTCACGTGGTTGAATAGTTC | 4540 a.u.
CTAACACGTGATATATTTGAAATGTGATTATATTTC | 11900 a.u.
GAATAACTCATTATCCTCGTGAAATATATATATTAG | 620 a.u.

Block 2
Target: Sal-like protein 4, full length isoform B (SALL4, Homo sapiens, UniProt Q9UJQ4-2, residues 1-616)
Technique: universal PBM
Molecule type: double-stranded DNA, one strand shown
Medium: in vitro
Tested at: not given
Setting: 8-mer, flanks averaged, mean of replicates
Direction: higher = stronger binding
Strand | E-score
CCGAAGAA | -0.022
GTGTCGAA | -0.0693
ACGTCTAG | 0.131
ATCAGCAG | -0.0437
CAGCACGG | -0.174
CGCTCTAC | -0.0808
GTGACATA | 0.209
GATTTCAA | 0.128
CCGACGTA | -0.116
AAACTAGG | 0.00353
CCGCCCAG | -0.285
GTTTCAAA | 0.152
CTCGGGGC | -0.337
CCAACCAG | -0.253
GGATACGA | 0.08
CACCAATG | -0.134
ACCCGGCT | -0.311
GCACTCAA | -0.207
AGCCGCCA | -0.307
GAAGGAGC | -0.206
CACGTCAC | 0.0822
CGGTTCCA | -0.243

Block 3
Target: CCNB1, cyclin fold, Cln2 fusion (human)
Technique: yeast growth competition, sequencing
Medium: yeast
Setting: weak parent motif
Relative to: not given
Direction: higher = stronger binding
Parent: SLBP docking peptide (human); ARYKRKLLINDFG
Variant | normalised enrichment score
ARYKRKLMINDFG [L8M] | 1.43
ARYDRKLLINDFG [K4D] | 0.164
ARYKRKILINDFG [L7I] | -1.01
ARYKRKLLINDFH [G13H] | 1.31
ARYKRKLVINDFG [L8V] | 0.715
ARYKRKLLINDFK [G13K] | 1.18
ARYKRKRLINDFG [L7R] | 0.0755
ARYKNKLLINDFG [R5N] | 0.198
ARYKRTLLINDFG [K6T] | 0.75
ARYIRKLLINDFG [K4I] | 0.282
ARYWRKLLINDFG [K4W] | 0.827
ARYKRKPLINDFG [L7P] | 0.285
ARYKRSLLINDFG [K6S] | -0.313
ARYKRKLLRNDFG [I9R] | 0.972
ARYKRKLTINDFG [L8T] | 0.77
ARYKRKLLINGFG [D11G] | 0.431
ARYKRYLLINDFG [K6Y] | 0.423
WRYKRKLLINDFG [A1W] | 1.24
AREKRKLLINDFG [Y3E] | 0.743
ARYKRKLLNNDFG [I9N] | 0.71
ARYKRKLLINDFS [G13S] | -0.13
ARYKRGLLINDFG [K6G] | 0.585
ARYKRKLLINDEG [F12E] | 0.901
ARYKRKLLIWDFG [N10W] | 0.813
ARYKRKLHINDFG [L8H] | 0.4

Block 4
Target: Histone acetyltransferase KAT6A, winged helix 2, GST fusion (KAT6A, Homo sapiens, UniProt Q92794, residues 85-181)
Technique: protein binding microarray
Molecule type: double-stranded DNA, one strand shown
Medium: in vitro
Tested at: not given
Setting: 8-mer, flanks averaged, mean of 2 arrays, mostly near background
Relative to: not given
Direction: higher = stronger binding
Residues (chain): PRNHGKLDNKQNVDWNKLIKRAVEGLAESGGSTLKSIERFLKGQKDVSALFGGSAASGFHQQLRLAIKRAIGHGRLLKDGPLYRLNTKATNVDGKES
Strand | E-score
CGAACACC | 0.123
ACACGGTA | -0.0451
ATGTATCC | -0.127
AGAATCGC | 0.112
CCACAAAG | 0.197
ACTGCCTC | -0.0813
GAGCGTCC | -0.0208
TAAGAATA | -0.217
TCCGCGGA | 0.208
ATCGTTCC | -0.0871
AGGCATGA | -0.12
GGACATAC | -0.131
GTCGAGTA | -0.00671
ATCCCTTG | -0.0673
GGTAGAAC | -0.105
AGCGCTGA | 0.0304
GACAACTC | 0.0378
CCTCTGGC | 0.0563
CCTATAGA | -0.191
CGGGTTAA | 0.119
AGTTGAGG | 0.0242
CCCCATCA | 0.054
GATACAAC | 0.0333

Block 5
Target: RING finger protein unkempt homolog, zinc fingers 1-6, GST-SBP tag (UNK, Homo sapiens, UniProt Q9C0B0, residues 30-357)
Technique: RNA Bind-n-Seq
Molecule type: RNA
Medium: in vitro
Tested at: not given
Setting: RNA with constant flanks, human and mouse sites, ends assumed
Relative to: input RNA pool
Direction: higher = stronger binding
Constant ends, left off below: GGGAGUUCUACAGUCCGACGAUC … CAACAGAGGAUUGAGCAUCA
Target sequence (chain): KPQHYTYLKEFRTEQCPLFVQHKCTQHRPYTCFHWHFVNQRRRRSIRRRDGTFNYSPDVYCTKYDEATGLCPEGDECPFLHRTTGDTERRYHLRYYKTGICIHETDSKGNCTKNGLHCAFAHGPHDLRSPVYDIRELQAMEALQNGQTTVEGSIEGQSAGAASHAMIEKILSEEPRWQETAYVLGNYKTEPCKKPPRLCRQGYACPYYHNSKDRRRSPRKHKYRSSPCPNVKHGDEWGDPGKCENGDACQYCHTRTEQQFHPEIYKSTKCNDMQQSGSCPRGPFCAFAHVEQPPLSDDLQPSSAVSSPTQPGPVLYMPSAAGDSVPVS
Strand | bound/input enrichment [ratio]
ACAUGAAUUUUUAACCUCCAUAAGGAAUGAUACUUGCUCUUGAUUUUAUUAGUUGCAUUUUGUAACAGGUUGGAAAAAUUAGGUAAUGGAGAACUUUGGCAUACCACUUUUGUUUCUUUU | 0.391
AUUCCACUUCAGACACCCCAUAAACUUGUAGAUACUGGCAGGGCUGCUAAAUUAAUACAGAGAGCUGAGGAAAUGAAGAGCGGCCUGAAAGAUUUCAAAACCUUUUUGACAAAUGAUCAA | 0.323
AGAGUCAAAGUUCUUCAAGAUUACACUGGCCUUAUACUCUUCCUGGAAGAGGACCACUACUUAGCCCCAGACUUUUACCAUGUCUUCAAAAAGAUGUGGAAACUGAAGCAGCAGGAGUGU | 0.15
CAGGAGGACCCUUCACAAAGGACUCUGGGGCCACACAGUGAACAGGAAUACUGUCAGGCAAUCUCAGAACUCCCCAGUGAGUUAAGGAAAAUGGCCACUUACCGUAAGCCCGUUGUCCUU | 0.0813
GAAGUUUGUAUCAAUCCAUACCACUAUAAGAGAGUGGAGAGUCCAGUCUUACCUCCAGUAUUAGUGCCUCGUCACAAUGAAUUCAAUCCACAACACAGCCUUCUGGUUCAGUUCAGGAAC | 0.203
GUUGAGAAAAAGGAGAAACCUCUUCCAAGACUUAAUAUCCAUUCUGGAUUCUGGAUUUUGGCAUCCAUUGUUGUGACCUAUUAUGUUGACUUCUUUAAAACCCUUAAAGAAAACUUCCAC | 0.203
UGCUUGUGCCCCUUGGGUUCUCUUUCAUUUUUUCUUUUUCUUUCUAUUUUUUUUCCGGUUGGGGGUGGGAGGGUUGGAUCGAACAGCCAGAGGGCCCUAGAGUUCCAUGCAUCUAAUUUA | 1.7
GAAGAAAAACCCUAUAAAUGUGAUGUAUGCAACUUACAGUUUGCAACUUCUAGCAAUCUCAAGAUUCAUGCAAGGAAGCAUAGUGGAGAGAAGCCAUAUGUCUGUGAUAGGUGUGGACAG | 0.228
UAAAGUUUUUAUACAGCCUCAAAUUGUUUUAUUAAAAAAAAGAUUUAAAAUGGUGAUGCUUACAGCAGUUUGUACGAGCUCUUAAGUGUUGAUUCCAUGGAACUGACGGCUUUGCUUGUU | 0.353
CCAGAGGUGAAAGGCUAUUGGGCAAGUUUGGAUGCAUCUACUCAAACCACCCAUGAACUCACCAUUCCAAAUAACUUAAUCGGCUGCAUAAUCGGGCGCCAAGGCGCCAACAUCAAUGAG | 0.0796
AAACUGACAGAGCUCCUCCGAUACUACAUGCUCAACAUAGAGGCUGCAAAGGAUCUCUUGUAUAGACGUACCAAAGCCCUAAUUGACUAUGAGAAUUCAAACAAAGCUUUGGACAAGGCC | 0.12

Block 6
Target: PABPC1L2, full length, GST fusion (mouse, UniProt A0ABA7IW68)
Technique: RNAcompete
Molecule type: RNA
Medium: in vitro
Tested at: 20 nM
Setting: 7-mer, probes averaged, single round
Relative to: mean of 7-mers
Direction: higher = stronger binding
Residues (chain): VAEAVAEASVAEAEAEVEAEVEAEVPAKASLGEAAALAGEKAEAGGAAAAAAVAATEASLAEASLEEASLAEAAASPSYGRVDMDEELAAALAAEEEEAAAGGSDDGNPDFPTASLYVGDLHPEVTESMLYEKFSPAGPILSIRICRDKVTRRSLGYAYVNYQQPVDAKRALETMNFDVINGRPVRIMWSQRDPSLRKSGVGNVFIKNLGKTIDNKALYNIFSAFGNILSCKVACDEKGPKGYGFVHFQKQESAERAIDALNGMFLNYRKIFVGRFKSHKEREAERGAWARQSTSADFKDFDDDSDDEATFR
Strand | 7-mer Z-score
UUCUGGA | -0.264
CAAGUCU | -0.229
UCCCUCA | -0.342
CGCGCCU | -0.28
AUUAAGC | -0.0844
AUUCUUC | -0.296
ACAUAUU | 0.0261
UGCUCUU | -0.298
GUGAAUA | -0.05
AAAGAGG | 2.22
UGUCUGA | -0.0391
CUUGCAG | -0.238
AUUAGAC | -0.146
UCAGAUG | 0.0478
CGCAUCC | -0.244
UCGUAUA | -0.191
UCUACUG | -0.403
AAUACUA | 0.273
CCAGGGA | 0.0823
AAGAAAA | 4.79

Some of these lines once more (block 4):
Strand | E-score
TAAGAATA | -0.217
TCCGCGGA | 0.208
ATCGTTCC | -0.0871
AGGCATGA | -0.12
GGACATAC | -0.131
GTCGAGTA | -0.00671
ATCCCTTG | -0.0673
GGTAGAAC | -0.105
AGCGCTGA | 0.0304
GACAACTC | 0.0378
CCTCTGGC | 0.0563
CCTATAGA | -0.191
CGGGTTAA | 0.119
AGTTGAGG | 0.0242
CCCCATCA | 0.054
GATACAAC | 0.0333
